Assay results from different studies.
Protocols differ between the studies behind these lines. Numbers after ± are the reported error.
CYP3A4: Cytochrome P450 3A4 (CYP3A4, Homo sapiens, UniProt P08684)
Sequence of UniProt P08684 (whole entry, looked up): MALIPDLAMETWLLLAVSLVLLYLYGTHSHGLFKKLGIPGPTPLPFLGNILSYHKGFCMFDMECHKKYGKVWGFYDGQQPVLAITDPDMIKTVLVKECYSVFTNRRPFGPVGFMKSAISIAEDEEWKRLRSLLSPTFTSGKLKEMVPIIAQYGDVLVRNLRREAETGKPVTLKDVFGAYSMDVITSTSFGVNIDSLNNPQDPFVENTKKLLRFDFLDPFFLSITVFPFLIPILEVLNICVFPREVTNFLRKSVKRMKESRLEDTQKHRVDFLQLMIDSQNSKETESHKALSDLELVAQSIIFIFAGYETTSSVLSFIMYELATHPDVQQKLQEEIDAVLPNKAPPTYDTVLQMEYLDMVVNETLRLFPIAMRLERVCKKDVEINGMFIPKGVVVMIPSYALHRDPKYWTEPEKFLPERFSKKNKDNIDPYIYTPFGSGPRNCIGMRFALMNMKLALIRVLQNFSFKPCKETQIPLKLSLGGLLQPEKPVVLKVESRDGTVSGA
ALB: Albumin (ALB, Homo sapiens, UniProt P02768)
Sequence of UniProt O15439 (whole entry, looked up): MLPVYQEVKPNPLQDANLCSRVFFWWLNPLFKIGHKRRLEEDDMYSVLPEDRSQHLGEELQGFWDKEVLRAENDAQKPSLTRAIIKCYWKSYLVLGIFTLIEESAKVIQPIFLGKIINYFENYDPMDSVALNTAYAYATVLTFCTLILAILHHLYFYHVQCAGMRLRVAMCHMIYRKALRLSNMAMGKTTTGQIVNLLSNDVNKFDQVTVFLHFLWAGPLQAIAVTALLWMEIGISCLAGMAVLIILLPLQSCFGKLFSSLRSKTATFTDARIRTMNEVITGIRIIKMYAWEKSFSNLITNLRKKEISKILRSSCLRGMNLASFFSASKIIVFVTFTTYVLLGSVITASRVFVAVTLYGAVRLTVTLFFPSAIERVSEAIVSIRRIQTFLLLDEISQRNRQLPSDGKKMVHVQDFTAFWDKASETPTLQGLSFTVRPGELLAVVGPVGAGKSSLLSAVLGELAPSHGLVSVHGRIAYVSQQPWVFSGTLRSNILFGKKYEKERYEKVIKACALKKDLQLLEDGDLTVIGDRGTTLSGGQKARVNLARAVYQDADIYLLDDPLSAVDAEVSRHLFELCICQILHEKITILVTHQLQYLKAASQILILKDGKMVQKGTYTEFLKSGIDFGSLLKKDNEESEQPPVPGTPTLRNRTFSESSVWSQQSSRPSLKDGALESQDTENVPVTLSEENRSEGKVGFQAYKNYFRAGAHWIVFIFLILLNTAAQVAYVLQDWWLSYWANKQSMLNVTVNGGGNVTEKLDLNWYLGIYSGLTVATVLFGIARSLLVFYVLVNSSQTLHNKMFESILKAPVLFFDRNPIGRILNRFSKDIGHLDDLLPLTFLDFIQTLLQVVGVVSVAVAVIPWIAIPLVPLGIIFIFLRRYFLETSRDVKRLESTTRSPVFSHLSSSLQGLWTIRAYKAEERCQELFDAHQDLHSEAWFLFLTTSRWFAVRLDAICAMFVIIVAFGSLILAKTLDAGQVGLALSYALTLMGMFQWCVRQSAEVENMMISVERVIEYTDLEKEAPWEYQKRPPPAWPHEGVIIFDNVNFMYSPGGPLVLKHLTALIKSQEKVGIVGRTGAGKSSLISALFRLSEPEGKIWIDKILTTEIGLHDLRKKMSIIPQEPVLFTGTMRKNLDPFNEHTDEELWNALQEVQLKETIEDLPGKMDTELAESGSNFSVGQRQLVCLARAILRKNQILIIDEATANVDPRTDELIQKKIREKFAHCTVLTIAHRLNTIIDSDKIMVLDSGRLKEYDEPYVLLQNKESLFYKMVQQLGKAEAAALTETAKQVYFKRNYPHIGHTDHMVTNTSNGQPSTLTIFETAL
Sequence of UniProt P61073 (whole entry, looked up): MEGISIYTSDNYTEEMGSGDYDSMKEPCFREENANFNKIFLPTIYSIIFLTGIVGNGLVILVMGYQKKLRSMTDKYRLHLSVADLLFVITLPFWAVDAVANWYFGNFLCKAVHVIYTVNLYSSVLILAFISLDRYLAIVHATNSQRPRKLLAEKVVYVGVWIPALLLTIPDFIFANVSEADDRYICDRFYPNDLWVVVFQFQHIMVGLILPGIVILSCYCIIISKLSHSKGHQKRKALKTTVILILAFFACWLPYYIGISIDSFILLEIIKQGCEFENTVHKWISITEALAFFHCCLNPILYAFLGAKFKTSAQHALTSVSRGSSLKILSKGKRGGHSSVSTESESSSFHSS

Structure (SMILES)	target	assay	test system	setting	scale	measurement	result
[64Cu+2].c1ccc(CNCc2ccc(CN3CCCNCCNCCCNCC3)cc2)nc1	CXCR4		NOD/SCID mouse, U87 and U87-stb-CXCR4 xenografts, kidney	iv, 90 min, no blocking dose, ex vivo		tissue uptake	34.8 ± 0.88 %ID/g
CCCS(=O)(=O)c1ccc2[nH]c(NC(=O)OC)nc2c1	CYP3A4		human liver fractions	1 µM, 30 min, pH 7.4		metabolised	3.21%
Cc1cc(C)c(-c2cc(C)c(OP(=O)([O-])OCCC[C@H](C(=O)[O-])N3CCN(CC(=O)[O-])CCN(CP(=O)([O-])O)CCN(CC(=O)[O-])CC3)cc2C)c(C)c1.[Gd+3]	ALB	variable temperature NMRD	HSA-bound complex	concentration not given		activation enthalpy of water exchange	6.55 kcal/mol
CN1C(=O)[C@@H](Cc2ccc(O)cc2)NC(=O)CNC(=O)[C@H](Cc2ccc3ccccc3c2)NC(=O)[C@H](CCCNC(=N)N)NC(=O)[C@H]1CCCNC(=O)c1ccc(CNC(=O)CN2CCN(CC(=O)O)CCN(CC(=O)O)CCN(CC(=O)O)CC2)cc1 [gallium-68 labelled]	CXCR4 (Homo sapiens, UniProt P61073)	PET imaging	human, tumor			SUVmax	23.3
CC(CCC(=O)NCC(=O)O)C1CCC2C3C(O)CC4CC(OC5OC(C(=O)O)C(O)C(O)C5O)CCC4(C)C3CCC12C (stereo not drawn)	ABCC4 (Homo sapiens, UniProt O15439)	substrate, membrane vesicle uptake		0.2 µM, 10 min	reference: ATP over AMP	vesicle uptake ratio	~4
Cc1cc(C)c(-c2cc(C)c(OP(=O)([O-])OCCC[C@H](C(=O)[O-])N3CCN(CC(=O)[O-])CCN(CC(=O)[O-])CCN(CC(=O)[O-])CC3)cc2C)c(C)c1.[Gd+3]	ALB	albumin binding, variable temperature NMRD fit	albumin-bound complex	0.1 mM, pH 7.4, fit 5-35 °C data, together with: HSA 0.66 mM		rotational correlation time	4.3 ns
CC(C)(O)c1ccccc1CC[C@H](c1cccc(/C=C/c2ccc3ccc(Cl)cc3n2)c1)S(=O)(=O)CC1(CC(=O)O)CC1	CYP3A4		human liver microsomes	2 µM, pH 7.4, together with: midazolam		inhibition	0.42%
N=C(N)NCCC[C@H](NC(=O)[C@H](Cc1c[nH]c2ccccc12)NC(=O)[C@H](CCCCN)NC(=O)[C@H](CCCNC(=N)N)NC(=O)[C@H](Cc1c[nH]c2ccccc12)NC(=O)[C@H](CCCCN)NC(=O)[C@H](CCCNC(=N)N)NC(=O)[C@H](Cc1c[nH]c2ccccc12)NC(=O)[C@H](CCCCN)NC(=O)[C@H](CCCNC(=N)N)NC(=O)[C@@H](N)Cc1c[nH]c2ccccc12)C(=O)N[C@@H](CCCCN)C(N)=O	chymotrypsin	RP-HPLC		6 h, 37 °C		remaining peptide	< 10%
CC(C)C[C@H](NC(=O)[C@H](C)NC(=O)[C@H](CC(C)C)NC(=O)[C@@H](NC(=O)CNC(=O)[C@H](CC(C)C)NC(=O)[C@@H](N)Cc1ccccc1)C(C)C)C(=O)N[C@@H](CC(C)C)C(=O)NCC(=O)N[C@H](Cc1ccc(O)cc1)C(=O)N[C@@H](CC(C)C)C(=O)N[C@@H](C)C(=O)N[C@H](C(=O)N[C@@H](CCCNC(=N)N)C(=O)N1CCC[C@H]1C(=O)N[C@H](Cc1ccccc1)C(=O)N[C@@H](CC(C)C)C(=O)N1CCC[C@H]1C(=O)N[C@@H](CCCCN)C(=O)N[C@H](CCCCN)C(=O)N[C@@H](CCCCN)C(=O)N[C@@H](CCC(N)=O)C(=O)N[C@@H](CCC(N)=O)C(=O)N[C@@H](CCCCN)C(N)=O)C(C)C	chymotrypsin	substrate, HPLC		450 µM, 540 min, 22 °C		peptide cleaved	65%

A few entries again:
Structure (SMILES)	target	assay	test system	setting	scale	measurement	result
Cc1cc(C)c(-c2cc(C)c(OP(=O)([O-])OCCC[C@H](C(=O)[O-])N3CCN(CC(=O)[O-])CCN(CP(=O)([O-])O)CCN(CC(=O)[O-])CC3)cc2C)c(C)c1.[Gd+3]	ALB	variable temperature NMRD	HSA-bound complex	concentration not given		activation enthalpy of water exchange	6.55 kcal/mol
